Experimental data pooled from the literature.
Each numbered part is a random draw from the data of one study; scales do not carry over between parts.
Sequence of UniProt P06241 (whole entry, looked up): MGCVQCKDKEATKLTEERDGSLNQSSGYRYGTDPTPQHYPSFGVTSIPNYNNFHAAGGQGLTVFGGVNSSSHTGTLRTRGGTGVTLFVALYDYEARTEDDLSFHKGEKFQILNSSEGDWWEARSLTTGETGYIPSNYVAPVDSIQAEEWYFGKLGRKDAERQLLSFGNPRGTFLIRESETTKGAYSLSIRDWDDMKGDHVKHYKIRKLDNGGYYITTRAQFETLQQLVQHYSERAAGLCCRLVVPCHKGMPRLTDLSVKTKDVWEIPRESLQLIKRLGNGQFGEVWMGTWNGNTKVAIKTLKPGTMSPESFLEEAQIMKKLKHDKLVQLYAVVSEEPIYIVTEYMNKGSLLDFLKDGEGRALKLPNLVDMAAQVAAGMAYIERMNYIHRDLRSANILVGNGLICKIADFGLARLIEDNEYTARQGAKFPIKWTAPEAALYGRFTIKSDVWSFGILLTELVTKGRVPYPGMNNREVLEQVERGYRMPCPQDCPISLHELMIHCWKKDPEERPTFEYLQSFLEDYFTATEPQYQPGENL
Sequence of UniProt P57058 (whole entry, looked up): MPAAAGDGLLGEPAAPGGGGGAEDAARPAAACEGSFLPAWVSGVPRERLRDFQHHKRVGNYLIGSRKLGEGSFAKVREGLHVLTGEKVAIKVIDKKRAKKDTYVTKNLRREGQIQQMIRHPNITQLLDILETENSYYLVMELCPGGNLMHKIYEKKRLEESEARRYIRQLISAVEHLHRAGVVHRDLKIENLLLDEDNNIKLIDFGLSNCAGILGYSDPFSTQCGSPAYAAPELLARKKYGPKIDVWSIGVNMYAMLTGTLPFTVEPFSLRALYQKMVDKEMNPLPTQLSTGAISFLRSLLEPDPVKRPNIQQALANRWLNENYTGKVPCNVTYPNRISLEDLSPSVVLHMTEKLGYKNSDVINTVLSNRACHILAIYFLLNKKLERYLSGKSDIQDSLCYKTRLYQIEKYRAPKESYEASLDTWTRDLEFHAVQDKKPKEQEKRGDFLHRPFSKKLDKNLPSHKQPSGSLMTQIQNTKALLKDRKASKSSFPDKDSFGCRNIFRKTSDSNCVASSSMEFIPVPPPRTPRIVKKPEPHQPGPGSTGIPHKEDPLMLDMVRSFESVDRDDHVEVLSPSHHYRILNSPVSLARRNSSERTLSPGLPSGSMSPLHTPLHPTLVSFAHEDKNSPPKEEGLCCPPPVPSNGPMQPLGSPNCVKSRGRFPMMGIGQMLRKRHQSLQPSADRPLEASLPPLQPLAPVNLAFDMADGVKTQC
Sequence of UniProt P53778 (whole entry, looked up): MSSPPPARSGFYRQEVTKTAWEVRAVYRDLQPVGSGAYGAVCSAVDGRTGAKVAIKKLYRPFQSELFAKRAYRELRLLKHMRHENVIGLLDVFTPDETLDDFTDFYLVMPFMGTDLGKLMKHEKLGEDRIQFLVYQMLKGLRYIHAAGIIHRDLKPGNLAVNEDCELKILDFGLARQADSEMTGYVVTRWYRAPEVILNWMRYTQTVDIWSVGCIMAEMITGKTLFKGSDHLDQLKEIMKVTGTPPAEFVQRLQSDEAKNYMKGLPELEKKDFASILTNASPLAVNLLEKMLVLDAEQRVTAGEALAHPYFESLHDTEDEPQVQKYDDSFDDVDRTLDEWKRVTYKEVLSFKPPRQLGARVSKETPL
Sequence of UniProt O15111 (whole entry, looked up): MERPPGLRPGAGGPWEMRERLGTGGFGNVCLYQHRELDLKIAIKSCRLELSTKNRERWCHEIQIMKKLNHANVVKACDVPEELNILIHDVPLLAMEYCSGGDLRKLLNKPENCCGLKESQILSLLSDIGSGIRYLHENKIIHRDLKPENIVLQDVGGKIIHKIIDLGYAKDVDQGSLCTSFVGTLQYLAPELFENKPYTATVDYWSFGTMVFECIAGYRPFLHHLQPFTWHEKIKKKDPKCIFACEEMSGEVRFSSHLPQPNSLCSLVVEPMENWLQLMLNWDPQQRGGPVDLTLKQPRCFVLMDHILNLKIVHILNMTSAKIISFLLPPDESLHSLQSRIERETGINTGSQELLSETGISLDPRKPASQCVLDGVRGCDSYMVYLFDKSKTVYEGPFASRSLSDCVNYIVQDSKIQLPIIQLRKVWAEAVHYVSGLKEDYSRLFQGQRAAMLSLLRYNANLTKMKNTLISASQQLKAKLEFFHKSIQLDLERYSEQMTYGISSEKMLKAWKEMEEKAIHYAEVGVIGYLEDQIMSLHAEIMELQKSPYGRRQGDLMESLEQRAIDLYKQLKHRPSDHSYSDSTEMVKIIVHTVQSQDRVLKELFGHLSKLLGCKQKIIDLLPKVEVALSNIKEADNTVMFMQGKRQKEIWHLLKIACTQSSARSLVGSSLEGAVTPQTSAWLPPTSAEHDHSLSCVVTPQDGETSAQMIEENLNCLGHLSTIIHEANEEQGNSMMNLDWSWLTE
Sequence of UniProt O75582 (whole entry, looked up): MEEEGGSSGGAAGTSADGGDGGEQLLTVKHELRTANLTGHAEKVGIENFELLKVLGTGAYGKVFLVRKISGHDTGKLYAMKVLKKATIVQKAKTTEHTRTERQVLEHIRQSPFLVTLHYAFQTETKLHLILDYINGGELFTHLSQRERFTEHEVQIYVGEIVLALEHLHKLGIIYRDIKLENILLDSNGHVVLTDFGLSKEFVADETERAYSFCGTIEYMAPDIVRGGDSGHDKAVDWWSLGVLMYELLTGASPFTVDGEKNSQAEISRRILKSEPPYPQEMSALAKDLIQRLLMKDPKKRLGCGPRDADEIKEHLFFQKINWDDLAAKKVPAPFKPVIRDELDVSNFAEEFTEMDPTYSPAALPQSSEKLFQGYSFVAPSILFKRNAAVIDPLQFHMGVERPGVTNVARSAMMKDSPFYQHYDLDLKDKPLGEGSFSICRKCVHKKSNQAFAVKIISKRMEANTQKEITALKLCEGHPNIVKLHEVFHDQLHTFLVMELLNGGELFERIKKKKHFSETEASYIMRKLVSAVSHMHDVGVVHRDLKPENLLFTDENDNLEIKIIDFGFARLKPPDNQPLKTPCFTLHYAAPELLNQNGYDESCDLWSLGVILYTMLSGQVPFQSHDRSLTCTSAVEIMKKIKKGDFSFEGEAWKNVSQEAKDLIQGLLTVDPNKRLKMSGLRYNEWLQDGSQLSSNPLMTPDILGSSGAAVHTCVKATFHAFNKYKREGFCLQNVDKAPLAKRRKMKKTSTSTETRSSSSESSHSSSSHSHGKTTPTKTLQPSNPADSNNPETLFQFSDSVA
Sequence of UniProt Q8WTQ7 (whole entry, looked up): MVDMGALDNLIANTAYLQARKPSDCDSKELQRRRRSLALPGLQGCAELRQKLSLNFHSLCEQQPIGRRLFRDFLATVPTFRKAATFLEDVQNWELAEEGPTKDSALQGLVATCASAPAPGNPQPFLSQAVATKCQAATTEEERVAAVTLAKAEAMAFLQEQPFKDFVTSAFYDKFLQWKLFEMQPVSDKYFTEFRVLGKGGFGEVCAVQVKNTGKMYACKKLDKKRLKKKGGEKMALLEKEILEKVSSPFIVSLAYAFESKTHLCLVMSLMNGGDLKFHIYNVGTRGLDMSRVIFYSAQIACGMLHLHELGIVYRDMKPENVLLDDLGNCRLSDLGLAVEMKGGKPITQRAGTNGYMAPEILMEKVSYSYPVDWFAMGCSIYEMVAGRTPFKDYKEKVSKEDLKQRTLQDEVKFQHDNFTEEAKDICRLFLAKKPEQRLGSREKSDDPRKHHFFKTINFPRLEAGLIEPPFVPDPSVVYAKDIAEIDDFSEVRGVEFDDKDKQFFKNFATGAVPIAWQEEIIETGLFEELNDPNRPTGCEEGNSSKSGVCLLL
Sequence of UniProt P21709 (whole entry, looked up): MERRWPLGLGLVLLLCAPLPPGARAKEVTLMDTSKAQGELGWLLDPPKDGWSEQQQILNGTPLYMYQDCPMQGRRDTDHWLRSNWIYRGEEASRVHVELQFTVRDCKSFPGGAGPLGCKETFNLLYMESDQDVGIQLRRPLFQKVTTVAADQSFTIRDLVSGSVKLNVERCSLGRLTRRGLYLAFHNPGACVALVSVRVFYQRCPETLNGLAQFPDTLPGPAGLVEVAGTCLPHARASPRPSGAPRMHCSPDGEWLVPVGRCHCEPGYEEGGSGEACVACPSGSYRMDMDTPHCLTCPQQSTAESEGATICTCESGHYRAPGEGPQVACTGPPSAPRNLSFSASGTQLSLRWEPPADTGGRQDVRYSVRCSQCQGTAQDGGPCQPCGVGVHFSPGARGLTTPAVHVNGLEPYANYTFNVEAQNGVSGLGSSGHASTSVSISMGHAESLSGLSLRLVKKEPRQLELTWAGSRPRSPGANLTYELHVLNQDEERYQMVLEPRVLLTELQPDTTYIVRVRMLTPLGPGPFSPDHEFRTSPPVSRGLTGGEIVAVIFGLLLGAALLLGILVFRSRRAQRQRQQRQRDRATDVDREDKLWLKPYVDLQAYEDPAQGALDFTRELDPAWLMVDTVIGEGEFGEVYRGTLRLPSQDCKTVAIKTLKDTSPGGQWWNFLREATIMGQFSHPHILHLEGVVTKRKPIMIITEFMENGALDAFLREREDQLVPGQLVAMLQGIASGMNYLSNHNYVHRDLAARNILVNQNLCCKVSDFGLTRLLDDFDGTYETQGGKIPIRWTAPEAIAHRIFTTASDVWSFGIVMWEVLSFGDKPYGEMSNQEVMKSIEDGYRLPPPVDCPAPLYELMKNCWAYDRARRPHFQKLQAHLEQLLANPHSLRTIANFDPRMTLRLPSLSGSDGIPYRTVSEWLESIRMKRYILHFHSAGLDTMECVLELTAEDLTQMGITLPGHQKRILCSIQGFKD

Study 1 — mode: inhibitor; tested at: 1 µM
SMILES: C=CC(=O)N1CCC[C@@H](n2nc(-c3ccc(Oc4ccccc4)cc3)c3c(N)ncnc32)C1
For EPHA1 (Homo sapiens, UniProt P21709): inhibition read 48%.
For Tyrosine-protein kinase ABL1, non-phosphorylated (ABL1, Homo sapiens, UniProt P00519, F317L): inhibition read 87%.
For PAK2 (Homo sapiens, UniProt Q13177); enzyme activity: inhibition read 4%.
It gave 17% for inhibition (PHKG1 (Homo sapiens, UniProt Q16816); enzyme activity).
BUB1 (Homo sapiens, UniProt O43683); enzyme activity — inhibition: 1%.
FYN (Homo sapiens, UniProt P06241); enzyme activity — inhibition: 95%.
The inhibition was 24% (DYRK1A (Homo sapiens, UniProt Q13627); enzyme activity).
For GRK7 (Homo sapiens, UniProt Q8WTQ7); enzyme activity: inhibition read 14%.
It gave 9% for inhibition (HUNK (Homo sapiens, UniProt P57058); enzyme activity).

Study 2 — observed: cell-free assay; method: competition with immobilised ligand; tested at: 1 µM
Compound: CO[C@H]1CC[C@H](CNc2ccc(S(=O)(=O)NC(=O)c3ccc(N4CCN(CC5=C(c6ccc(Cl)cc6)CC(C)(C)CC5)CC4)cc3Oc3cnc4[nH]ccc4c3)cc2[N+](=O)[O-])CC1
It gave 77% for remaining binding (PIK3CA (Homo sapiens, UniProt P42336)).
The remaining binding was 84% (ACVR1 (Homo sapiens, UniProt Q04771)).
For EPHA6 (Homo sapiens, UniProt Q9UF33): remaining binding read 99%.
It gave 86% for remaining binding (PIK3CG (Homo sapiens, UniProt P48736)).
For RET (Homo sapiens, UniProt P07949): remaining binding read 100%.
For NIM1K (Homo sapiens, UniProt Q8IY84): remaining binding read 90%.
EPHA3 (Homo sapiens, UniProt P29320) — remaining binding: 90%.
For PAK4 (Homo sapiens, UniProt O96013): remaining binding read 78%.
It gave 67% for remaining binding (Non-receptor tyrosine-protein kinase TYK2, JH2 (TYK2, Homo sapiens, UniProt P29597)).
It gave 100% for remaining binding (Cyclin-dependent kinase 4, with cyclin D1 (CDK4, Homo sapiens, UniProt P11802)).
It gave 91% for remaining binding (CDK8 (Homo sapiens, UniProt P49336)).
It gave 86% for remaining binding (TAOK2 (Homo sapiens, UniProt Q9UL54)).
For Tyrosine-protein kinase JAK2, JH1 (JAK2, Homo sapiens, UniProt O60674): remaining binding read 89%.
PRKCH (Homo sapiens, UniProt P24723) — remaining binding: 60%.
It gave 65% for remaining binding (Ribosomal protein S6 kinase alpha-5, N-terminal kinase domain (RPS6KA5, Homo sapiens, UniProt O75582)).

Study 3 — tested at: 1 µM
SMILES: CN1CCN(C(=O)c2ccc(NC(=O)Nc3ccc(N(C)c4ccnc(Nc5ccc(CS(C)(=O)=O)cc5)n4)cc3)cc2)CC1
For SRPK2 (Homo sapiens, UniProt P78362); competitive binding panel; reference: vehicle: remaining binding read 80%.
AAK1 (Homo sapiens, UniProt Q2M2I8); competitive binding panel; reference: vehicle — remaining binding: 19%.
The remaining binding was 90% (CHUK (Homo sapiens, UniProt O15111); competitive binding; IKK-alpha).
MKNK1 (Homo sapiens, UniProt Q9BUB5); competitive binding panel; reference: vehicle — remaining binding: 65%.
It gave 92% for remaining binding (STK33 (Homo sapiens, UniProt Q9BYT3); competitive binding panel; reference: vehicle).
For DMPK (Homo sapiens, UniProt Q09013); competitive binding panel; reference: vehicle: remaining binding read 100%.
It gave 100% for remaining binding (NEK11 (Homo sapiens, UniProt Q8NG66); competitive binding panel; reference: vehicle).
MAP3K7 (Homo sapiens, UniProt O43318); competitive binding panel, refers to: TAK1; reference: vehicle — remaining binding: 25%.
For MAPK12 (Homo sapiens, UniProt P53778); competitive binding; p38-gamma: remaining binding read 100%.

Study 4 — observed: enzyme activity; mode: inhibitor; tested at: 0.5 µM; reference: control
Target: Aurora kinase B (AURKB, Homo sapiens, UniProt Q96GD4)
Sequence of UniProt Q96GD4 (whole entry, looked up): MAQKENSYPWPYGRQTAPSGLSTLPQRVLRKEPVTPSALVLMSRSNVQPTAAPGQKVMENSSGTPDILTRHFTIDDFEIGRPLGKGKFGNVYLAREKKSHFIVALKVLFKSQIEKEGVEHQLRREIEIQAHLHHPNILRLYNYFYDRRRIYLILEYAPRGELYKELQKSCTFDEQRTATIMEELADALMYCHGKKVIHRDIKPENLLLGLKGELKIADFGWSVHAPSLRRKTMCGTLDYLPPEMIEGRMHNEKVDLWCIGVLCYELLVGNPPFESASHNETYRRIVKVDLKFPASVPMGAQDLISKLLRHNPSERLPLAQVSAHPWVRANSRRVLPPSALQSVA
The remaining activity of `CC(C)n1cnc2c(Nc3cccc(Cl)c3)nc(NCCO)nc21` is reported as 106%.
`O=C1NC(=O)/C(=C/c2ccc3c(c2)OC(F)(F)O3)S1` gave a remaining activity of 102%.
`O=C1c2ccccc2-c2nc3nnnn3nc21` gave a remaining activity of 84.7%.
With `CC(C)(C)c1nc2c3cc[nH]c(=O)c3c3cc(F)ccc3c2[nH]1` the remaining activity was 11.2%.
`N#CC(c1ccnc(NCCc2cccnc2)n1)c1nc2ccccc2s1` (centres unmarked) has a remaining activity of 94%.
The remaining activity of `NC(=O)c1cccc(-c2cc(Nc3ccc(OC(F)(F)F)cc3)ncn2)c1` is reported as 96.9%.
The remaining activity of `O=c1c(-c2ccc(F)cc2)c(-c2ccncc2)[nH]n1-c1ccc(Cl)cc1` is reported as 95.1%.
`c1cc(-c2cnn3cc(-c4ccc(OCCN5CCCCC5)cc4)cnc23)ccn1` has a remaining activity of 55%.
With `O=Nc1c(-c2c(O)[nH]c3ccccc23)[nH]c2ccccc12` the remaining activity was 49.6%.
With `Nc1nc(Nc2ccc(S(N)(=O)=O)cc2)nn1C(=S)Nc1c(F)cccc1F` the remaining activity was 12.9%.
`C[C@@H](N)[C@H]1CC[C@H](C(=O)Nc2ccncc2)CC1` has a remaining activity of 93.9%.
